Literature values, collected from citations in different studies.
Numbers after ± are the reported error.
Sequence of UniProt P35348 (whole entry, looked up): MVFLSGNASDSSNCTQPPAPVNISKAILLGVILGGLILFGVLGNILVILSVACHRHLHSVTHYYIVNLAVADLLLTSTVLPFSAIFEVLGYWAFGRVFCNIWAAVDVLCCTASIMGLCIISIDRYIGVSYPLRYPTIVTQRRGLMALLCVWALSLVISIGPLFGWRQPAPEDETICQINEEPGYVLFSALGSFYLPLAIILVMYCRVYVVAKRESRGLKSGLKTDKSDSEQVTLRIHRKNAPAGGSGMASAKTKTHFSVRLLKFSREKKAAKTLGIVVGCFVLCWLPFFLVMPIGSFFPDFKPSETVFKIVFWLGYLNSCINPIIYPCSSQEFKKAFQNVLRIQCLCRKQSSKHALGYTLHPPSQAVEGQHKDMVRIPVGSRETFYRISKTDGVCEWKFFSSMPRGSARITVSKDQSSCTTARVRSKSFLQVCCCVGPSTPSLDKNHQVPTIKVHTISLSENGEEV
Sequence of UniProt P41143 (whole entry, looked up): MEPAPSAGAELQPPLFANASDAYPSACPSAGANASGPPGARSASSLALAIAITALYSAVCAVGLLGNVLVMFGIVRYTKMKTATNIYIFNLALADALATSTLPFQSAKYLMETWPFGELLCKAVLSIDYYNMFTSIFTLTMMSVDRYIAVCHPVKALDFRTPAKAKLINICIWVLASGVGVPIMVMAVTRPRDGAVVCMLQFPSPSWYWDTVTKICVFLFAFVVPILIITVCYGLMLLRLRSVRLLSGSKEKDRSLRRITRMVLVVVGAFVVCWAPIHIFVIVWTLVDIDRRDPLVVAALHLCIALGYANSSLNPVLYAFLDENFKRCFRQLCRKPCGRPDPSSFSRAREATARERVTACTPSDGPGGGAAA

The IC50 of `CC(C)CCCCC/C=C/C=C/C(=O)N[C@H](C(=O)N[C@H]1C[C@@H](O)CCNC(=O)/C=C/[C@H](C)NC1=O)[C@@H](C)O` is reported as 0.024 µM (yeast proteasome β2 subunit; inhibitor; purified yeast proteasome).
`COc1ccc(/C=C\c2cc(OC)c(OC)c(OC)c2)cc1OP(=O)(O)O` has an IC50 of > 40 µM (tubulin (bovine brain); tubulin polymerisation, inhibitor).
For `C=CCN(CC=C)CCc1c[nH]c2ccccc12`, the Ki was 1.66 µM (ADRA1A (Homo sapiens, UniProt P35348); binding; cloned human receptor; together with: [3H]prazocin).
The IC50 of `Cn1c(=O)c2c(ncn2C)n(C)c1=O` is reported as 1100 µM (ATR).
Under “Km or Ki”, `O=c1c2nc(Br)n([C@@H]3O[C@@H]4CO[P@@](O)(=S)O[C@H]4[C@H]3O)c2nc2[nH]c(-c3ccccc3)cn12` is recorded as 55.6 µM (PDE1C; cyclic nucleotide hydrolysis, substrate or inhibitor, isothermal titration calorimetry).
`C[C@@]12OC(=O)[C@]1([C@@H](O)[C@@H]1C=CCCC1)NC(=O)[C@@H]2CCCl` gave an IC50 of 0.0014 µM (Saccharomyces cerevisiae 20S proteasome β5; chymotrypsin-like activity).
With `C[n+]1cn([C@@H]2O[C@H](COP(=O)(O)OP(=O)([O-])O)[C@@H](O)[C@H]2O)c2nc(N)[nH]c(=O)c21` the IC50 was 0.12 µM (Caenorhabditis elegans decapping scavenger DcpS; hydrolytic activity, inhibitor).
For `O=C(O)COc1ccc(Cl)cc1`, the IC50 was ~30000 µM (Torpedo CLC-0 chloride channel; chloride current, inhibitor; intracellular application, +80 mV).
The IC50 of `NC(=O)[C@@H]1CC[C@@H]2CN1C(=O)N2OS(=O)(=O)O` is reported as > 50 µM (PBP4; highest tested 50 µM).
`CC(C)=CCC/C(C)=C/Cc1cc(-c2coc3cc(O)ccc3c2=O)ccc1O` has an IC50 of 0.81 ± 0.15 µM (STAT3; reporter gene; Hep3B; together with: IL-6).
`CC1(C)CCC(C)(C)c2cc(C3(c4ccc5cc(C(=O)O)ccc5c4)SCCS3)ccc21` has an IC50 of 0.06 µM (CYP26A1; enzyme activity, inhibitor; together with: 9-cis-retinoic acid).
With `Oc1cc(Oc2cc(Br)c(Br)cc2Br)c(Br)cc1Br` the IC50 was 0.4 µM (iodothyronine deiodinase 1 (human); enzyme activity, inhibitor; pooled human liver microsomes).
`O=[P@]1(S)OC[C@H]2O[C@@H](n3cnc4cc(Cl)c(Cl)cc43)[C@H](O)[C@@H]2O1`: “Km or Ki” 4.75 µM (PDE10; cyclic nucleotide hydrolysis, substrate or inhibitor, isothermal titration calorimetry).
The IC50 of `CC(=O)N[C@H]1[C@H](Oc2ccccc2-c2cccc(C(=O)O)c2)O[C@H](CO)[C@H](O)[C@@H]1O` is reported as 0.64 µM (FmlH adhesin; binding to serine-linked TF antigen, inhibitor, ELISA).
`CCCCCCCCCCCCCCCCS(=O)(=O)F` has an IC50 of 0.007 µM (FAAH; enzyme activity, inhibitor; together with: radiolabelled anandamide substrate).
With `N#CSCCOc1ccc(Oc2ccccc2)cc1` the IC50 was 0.088 µM (squalene synthase Trypanosoma cruzi; inhibitor; glycosomes of epimastigotes).
`NC(CC(=O)Nc1ccc2c(c1)Cc1cc(F)ccc1-2)C(=O)O` (centres unmarked) has an IC50 of 0.003 µM (EAAT2; D-aspartate uptake, inhibitor; COS-17.2 expressing EAAT2; together with: [3H]D-aspartic acid).
With `CCCc1nn(C)c2c(=O)[nH]c(-c3cc(S(=O)(=O)N4CCN(C)CC4)ccc3OCC)nc12` the IC50 was > 10 µM (PDE7).
For `CN[C@@H]1[C@@H](O)[C@@H](O[C@@H]2[C@@H](O)[C@H](O[C@H]3O[C@H]([C@@H](C)O)[C@@H](O)[C@H](O)[C@H]3N)[C@@H](N)C[C@H]2N)OC[C@]1(C)O`, the IC50 was 2 ± 0.3 µM (rabbit ribosome; translation, inhibitor, item: firefly luciferase; rabbit reticulocyte lysate).
With `C=CCN(CC=C)CCc1c[nH]c2ccc(Br)cc12` the Ki was > 10 µM (OPRD1 (Homo sapiens, UniProt P41143)).
The IC50 of `O=C1Cc2ccccc2C(=O)N1O` is reported as 5.9 µM (HIV-1 reverse transcriptase RNase H; enzyme activity).
The IC50 of `COCC[C@H]1CC2CN3CCc4c([nH]c5ccccc45)[C@](C(=O)OC)(C2)[C@H]13` is reported as 0.75 to 0.9 µM (α3β4 nicotinic acetylcholine receptor; desensitized state stabilization).
The IC50 of `CCCCC/C=C\C/C=C\C/C=C\C/C=C\CCCC(=O)NCCO` is reported as 1670 µM (MAO-B, pig; inhibitor; brain cortex mitochondria; together with: phenylethylamine).
